Values quoted from earlier work as cited in several papers.
Lines come from different studies, so protocols differ.
Cell line: MCF7

| SMILES | observed | concentration | time | setting | with | endpoint | value |
| --- | --- | --- | --- | --- | --- | --- | --- |
| CC(F)(F)c1cc(F)ccc1-c1sc2cc(O)ccc2c1Oc1ccc(/C=C/C(=O)O)cc1 | cell growth |  |  |  |  | IC50 | 0.7 nM |
| COc1cccc2c1C(=O)c1c(O)c3c(c(O)c1C2=O)C[C@@](O)(C(=O)CO)C[C@@H]3O[C@H]1C[C@H](N)[C@H](O)[C@H](C)O1 |  |  |  |  |  | IC50 | 540 nM |
| COc1cc2c3c(n(CCCN4CCOCC4)c(=O)c2cc1OC)-c1cc2c(cc1C3=O)OCO2 |  |  | 72 h |  |  | IC50 | 560 nM |
| C[C@]12CC[C@@H]3c4ccc(O)cc4C[C@@H](CCCCCCCCC[S+]([O-])CCCC(F)(F)C(F)(F)F)[C@H]3[C@@H]1CC[C@@H]2O (some centres unmarked) |  | concentration not given |  |  | insulin stimulation | cell proliferation | inhibited |
| CC(C)(c1ccc(O)cc1)c1ccc(O)cc1 | cell proliferation |  |  | 10% FBS |  | EC50 | 200 nM |
| C[C@H]1COCCN1c1nc(-c2cnc(N)cc2C(F)F)nc(N2CCOCC2)n1 |  |  |  |  |  | GI50 | 97 nM |
| O=c1c(-c2ccc(O)cc2)coc2cc(O)cc(O)c12 | cell proliferation |  |  | 5% FBS |  | EC50 | 300 nM |
| O=c1[nH]cc(F)c(=O)[nH]1 |  |  |  |  |  | IC50 | 2700 nM |

For quick reference, copied from above:
| SMILES | observed | concentration | time | setting | with | endpoint | value |
| --- | --- | --- | --- | --- | --- | --- | --- |
| COc1cccc2c1C(=O)c1c(O)c3c(c(O)c1C2=O)C[C@@](O)(C(=O)CO)C[C@@H]3O[C@H]1C[C@H](N)[C@H](O)[C@H](C)O1 |  |  |  |  |  | IC50 | 540 nM |
